Results of several laboratories.
Protocols differ between the studies behind these lines. “And” joins repeats or separate records; there may be more than shown. ± marks the error that the study gave.

Compound	test	system	setting	how to read	measurement	result
CC12CC(c3ccc(S(C)(=O)=O)cc3)C3=C4CCC(=O)C=C4CCC3C1CCC2(O)C(F)(F)C(F)(F)F (centres unmarked)		human, fasted, plasma	oral, 4 mg, alone, without itraconazole		AUC(0-tlast), geometric mean	317 ng·h/mL
NCCCC[C@H](NC(=O)[C@@H]1CCCN1C(=O)[C@@H]1CSSC[C@H](NC(=O)CNC(=O)CNC(=O)CN)C(=O)N[C@@H](Cc2ccc(O)cc2)C(=O)N[C@@H](Cc2ccccc2)C(=O)N[C@@H](CCC(N)=O)C(=O)N[C@@H](CC(N)=O)C(=O)N1)C(=O)NCC(N)=O		male Sprague Dawley rats	iv	relative to: NOAEL over NOEL	therapeutic index	~10
CC(C)(C)ONc1nc(Nc2ccnc(C(F)(F)F)c2)nc(-c2cccc(C(F)(F)F)n2)n1		female Balb/cA nude mice xenograft, plasma	oral, 54.14 mg/kg		AUC(0-24 h)	58900 ng·h/mL
CC(C)(O)c1ncc([S@](N)(=O)=NC(=O)Nc2c3c(cc4c2CCC4)CCC3)s1		human, plasma	oral, 3 mg, single dose, fasted, healthy volunteers		Tmax	0.76 h
Cc1cc(O)c2c(c1)C(=O)c1cc(O)cc(O)c1C2=O.Cc1cc(O)c2c(c1)C(=O)c1cc(O)cc(O)c1C2=O.Cc1nc(C)c(C)nc1C	shake-flask	water and phosphate buffer	pH 6.8, 37 °C	relative to: pure emodin	equilibrium solubility	increased
CC(=O)Nc1ccc(C(N)=O)c(F)c1	HPLC-MS/MS	human, male, plasma	25 mg, geometric mean, 1		AUC	700 ng·h/mL
[11CH3]Oc1ccc(Cc2cn[nH]c2)nc1-c1cccc([N+](=O)[O-])c1		rat, brain ex vivo	i.v., 30 min		parent radioligand fraction	63.3 ± 3%
N#CCc1cccc(Cl)c1-c1ccc2[nH][11c](=O)[nH]c2c1		mice, brain homogenate	dose not given, 30 min		unchanged tracer fraction	65%
COC(=O)C(c1ccccc1Cl)N1CCC(SCC(=O)c2cccc(OC)c2)C(=CC(=O)O)C1 (mixture of isomers)	HPLC-MS/MS	feline EDTA plasma	100 ng/mL, 48 h, -20 °C, storage stability		deviation from nominal	0%
COc1ccc(/C=C/c2ccc(-c3ccc(C)cn3)nc2)cc1	TCSPC	acetonitrile	zinc-free ligand		radiative decay rate constant	0.47 ns⁻¹
Cc1ccc(OCC(=O)O)cc1		male beagle dog, plasma	intravenous, 1.0 mg/kg of parent drug	relative to: compound over parent drug	AUC(0-last) ratio	2.96
Cc1[nH]nc2c1N=C(c1ccccc1Cl)c1cnc(N(CCO)CCO)cc1N2		human, feces and urine	oral, 10 mg	relative to: dose	excretion in feces and urine	2.91%
CCCCCCCC(=O)OC[C@H](NC(=O)[C@H](CO)NC(=O)CN)C(=O)N[C@@H](Cc1ccccc1)C(=O)N[C@@H](CC(C)C)C(=O)N[C@@H](CO)C(=O)N1CCC[C@H]1C(=O)N[C@@H](CCC(=O)O)C(=O)N[C@@H](Cc1cnc[nH]1)C(=O)N[C@@H](CCC(N)=O)C(=O)N[C@@H](CCCNC(=N)N)C(=O)N[C@H](C(=O)N[C@@H](CCC(N)=O)C(=O)N[C@@H](CCC(N)=O)C(=O)N[C@@H](CCCNC(=N)N)C(=O)N[C@@H](CCCCN)C(=O)N[C@@H](CCC(=O)O)C(=O)N[C@@H](CO)C(=O)N[C@@H](CCCCN)C(=O)N[C@@H](CCCCN)C(=O)N1CCC[C@H]1C(=O)N1CCC[C@H]1C(=O)N[C@@H](C)C(=O)N[C@@H](CCCCN)C(=O)N[C@@H](CC(C)C)C(=O)N[C@@H](CCC(N)=O)C(=O)N1CCC[C@H]1C(=O)N[C@@H](CCCNC(=N)N)C(=O)O)C(C)C		patients with chronic HFrEF	iv infusion, 0.1 µg/kg/min, 30 min after end of infusion, scale 1-10, median	direction not given	thirst score	5
COc1cc(OC)cc(C2=C3C(C)=C(I)C(C)=[N+]3[B-](F)(F)n3c(/C=C/c4c[nH]c5ccc([N+](=O)[O-])cc45)c(I)c(C)c32)c1		DMSO			absorption maximum	622 nm
NS(=O)(=O)c1ccc(N2N=C(C(F)(F)F)CC2c2ccc(F)cc2F)cc1 (centres unmarked)		beagle dog, plasma	oral, 4 mg/kg, single dose		Cmax	872 ng/mL
CN1CCN(c2ccc(Nc3ncc(Cl)c(Nc4ccccc4P(C)(C)=O)n3)cc2Br)CC1		Sprague-Dawley rat, male, plasma	oral, 25 mg/kg		MRT(0-inf)	18 h and 10.5 h and 40.1 h
CC(C)c1cnc(-c2cc(Cl)ccc2F)cc1Nc1ccncc1C(=O)NC(CO)CO		patients, phase I monotherapy	oral, dose not given, grade 1		patients with ALT increase	9.5%
CCCC[C@H](NC(=O)CNC(=O)CNC(=O)CN1CCN(CC(=O)O)CCN(CC(=O)O)CC1)C(=O)N[C@H]1CC(=O)NCCCC[C@@H](C(N)=O)NC(=O)[C@H](Cc2c[nH]c3ccccc23)NC(=O)[C@H](CCCNC(=N)N)NC(=O)[C@@H](Cc2ccccc2)NC(=O)[C@H](Cc2c[nH]cn2)NC1=O [gallium-67 labelled]		female C57 mice, B16/F1 melanoma, pancreas	intravenous, 0.037 MBq, 0.5 h		tissue uptake	1.03 ± 0.16 %ID/g
[11CH3]c1ccc2nc(C3CCC3)n(-c3ccc4[nH]ncc4c3)c2n1		human female, ovaries			absorbed radiation dose	4.2 µSv/MBq
C[C@H](NC(=O)COC(=O)[C@H](C)NC(=O)CO)C(=O)O		water	pH 5, 65 °C		depolymerization half-life	0.82 h
CC[C@H](C)[C@H](NC(=O)[C@H](CCCCN)NC(=O)[C@H](CS)NC(=O)[C@H](CC(N)=O)NC(=O)[C@H](C)NC(=O)[C@H](CCCNC(=N)N)NC(=O)[C@H](CCCNC(=N)N)NC(=O)[C@H](CC(N)=O)NC(=O)[C@H](CCCNC(=N)N)NC(=O)[C@H](CCCNC(=N)N)NC(=O)[C@H](C)NC(=O)[C@H](CS)NC(=O)[C@H](CO)NC(=O)[C@@H](NC(=O)[C@@H](NC(=O)[C@H](CS)NC(=O)[C@H](CCCCN)NC(=O)[C@@H](N)CCCNC(=N)N)C(C)C)[C@@H](C)CC)C(=O)N[C@@H](CC(C)C)C(=O)N[C@@H](CS)C(=O)N[C@@H](CC(N)=O)C(=O)O	LC-MS	PBS	0.1 mg/mL		single disulfide form	48%
CC(C)[C@H](NC(=O)CNC(=O)[C@H](CCC(N)=O)NC(=O)[C@H](C)N)C(=O)O		human male, plasma	intravenous infusion, 30 mg/kg single, 15 min infusion, geometric mean		Cmax	3070 ng/mL
Cc1cc2c(NC(=O)N[C@@H]3CC(C)(C)Oc4cc(C(F)(F)F)ccc43)c(C)ccc2cn1		Sprague-Dawley rat, male	oral, 100 µmol/kg, telemetry study		plasma concentration	700 ng/mL
C[C@H](NC(=O)c1ccc2c(c1)C(=O)OC21c2ccc(O)cc2Oc2cc(O)ccc21)C(=O)N[C@@H](CCCCN)C(=O)N[C@@H](C)C(=O)N[C@@H](CCCCN)C(=O)N[C@@H](C)C(=O)N[C@@H](CCCCN)C(=O)N[C@@H](C)C(=O)N[C@@H](CCCCN)C(=O)N[C@@H](C)C(=O)N[C@@H](CCCCN)C(=O)N[C@@H](C)C(=O)N[C@@H](CCCCN)C(=O)N[C@@H](C)C(=O)N[C@@H](CCCCN)C(=O)N[C@@H](C)C(=O)N[C@@H](Cc1ccccc1)C(=O)N[C@@H](C)C(=O)N[C@@H](Cc1ccccc1)C(=O)N[C@@H](C)C(=O)N[C@@H](Cc1ccccc1)C(=O)O		bovine cartilage, 90% GAG depleted	30 µM, 24 h	relative to: hydrophilic counterpart	uptake ratio	6.5 fold

Compound	test	system	setting	how to read	measurement	result
CCCCCCCCCCCCCCCC(=O)N[C@@H](CCCCN)C(=O)N[C@H](C(=O)N[C@H](C(=O)N[C@@H](CCCCN)C(=O)N[C@@H](CO)C(=O)O)[C@@H](C)O)[C@@H](C)O		hairless mouse, skin, Franz cell	50 µg/cm^2 applied, 24 h		percent of applied dose in stratum corneum	8.3%
CCCC[C@H](NC(C)=O)C(=O)N[C@H]1CC(=O)NCCCC[C@@H](C(=O)N[C@@H](C(=O)N2CCC[C@@H]2C(N)=O)C(C)C)NC(=O)[C@H](Cc2c[nH]c3ccccc23)NC(=O)[C@H](CCCN=C(N)N)NC(=O)[C@@H](Cc2ccc3ccccc3c2)NC(=O)[C@@H]2CCCN2C1=O		Beagle dog, both sexes, plasma	subcutaneous, once daily, 2.25 mg/kg, day 1		volume of distribution	2450 ± 249 mL
C#CCOc1ccc(/C=C2\SC(=O)N(CC(=O)NCc3ccccc3)C2=O)cc1	inverse Kirkwood-Buff integrals	binary solvent mixture	concentration not given, 298.15 K, mole fraction x1 0.85		correlation volume	5590 cm³/mol
COc1cc(NC(C)=O)c2c(c1O)-c1c(OC)c(OC)cc3c1C(C2)N(C)CC3 (centres unmarked)		rat, plasma	5 µg/mL, 4 h, room temperature, short-term storage		remaining compound	102 ± 3.4%
C=C(c1ccc(C(=O)O)c(F)c1)c1cc2c(cc1C)C(C)(C)C=CC2(C)C		Sprague-Dawley rat, male, plasma	oral, 100 mg/kg, 3 h, sesame oil vehicle		LDL level	18 ± 2.5 mg/dL
C[Si](C)(C[C@@H](CN)CC(=O)O)C1CC1	neuromuscular coordination	Wistar rat male	oral, 30 mg/kg, 3 h		performance time	154 s
CCCC(CCC)NC(=O)c1ccc(OC2OC(C(=O)O)C(O)C(O)C2O)c(O)c1 (centres unmarked)		female Sprague-Dawley rats, plasma	oral, 200 mg/kg of parent drug	relative to: 200 over 20 mg/kg dose	AUC(0-last) ratio	3.33
N=C(N)NCCC[C@@H]1NC(=O)[C@H](Cc2c[nH]c3ccccc23)NC(=O)[C@@H](CC2CCCCC2)NC(=O)[C@@H]2CCCN2C(=O)[C@@H](NC(=O)CCc2ccccc2)CCCNC1=O	two-compartment model	C57BL/6J mice, brain	oral, 1 mg/kg		beta rate constant	0.25 h⁻¹
CC(C)C[C@@H](NC(=O)[C@H](NC(=O)[C@H]1CCCN1)[C@H](C)O)C(=O)N[C@H](Cc1c[nH]cn1)C(=O)N[C@@H](C(=O)N[C@H](Cc1c[nH]cn1)C(=O)N[C@H](CC(N)=O)C(=O)N[C@H](CCCNC(=N)N)C(=O)N[C@H](CCCNC(=N)N)C(=O)N[C@H](CCCNC(=N)N)C(=O)N[C@H](CCCNC(=N)N)C(=O)N[C@H](CCCNC(=N)N)C(N)=O)[C@H](C)O		Beagle dog, CSF	oral, 20 mg/kg		MRT(0-inf)	155 ± 131 h
CCCC(CCC(=O)O)NC(=O)c1ccc2c(c1)OCO2 (centres unmarked)		male Sprague-Dawley rats, plasma	oral, 50 mg/kg of parent drug	relative to: 50 over 20 mg/kg dose	AUC(0-last) ratio	3.26
CCc1cc(C)n2nc(-c3ccc(OCC[18F])cc3)c(CC(=O)N(CC)CC)c2n1		rat, plasma	first 2 min after injection		parent radioligand in plasma	94%
Oc1ccc2ccccc2c1/N=N/c1ccc(/N=N/c2ccccc2)cc1		rat whole blood QC samples	16.0 µg/L, 8 h, room temperature, short-term stability		measured concentration	16.3 µg/L
CCCC[C@@H]1NC(=O)[C@@H](NC(=O)[C@H](CCC(=O)O)NC(=O)CNC(=O)CN2CCN(CC(=O)O)CCN(CC(=O)O)CCN(CC(=O)O)CC2)CCCCNC(=O)C[C@@H](C(N)=O)NC(=O)[C@H](C(C)C)NC(=O)[C@@H]2CCCN2C(=O)[C@H](CCCNC(=N)N)NC(=O)CNC(=O)[C@H](Cc2c[nH]c3ccccc23)NC(=O)[C@H](CCCNC(=N)N)NC(=O)[C@@H](Cc2ccccc2)NC(=O)[C@H](Cc2c[nH]cn2)NC(=O)[C@H](CCC(=O)O)NC1=O [gallium-67 labelled]		C57 mice with B16/F1 melanoma	intravenous, 0.037 MBq/mouse, 0.5 h	relative to: tumour over liver	tumour to liver ratio	12.4
COCC1CN(C2CCN(c3cc(OC)c(Nc4ncc(Br)c(Nc5ccc6c(c5P(C)(C)=O)OCCO6)n4)cc3C)CC2)C1		human patients	oral, dose not given		grade ≥3 treatment-related diarrhea	3.7%
C=C(c1ncc(C(=O)O)cn1)c1cc2c(cc1C)C(C)(C)CCC2(C)C		Sprague-Dawley rat, male, plasma	oral, 100 mg/kg, 12 h, sesame oil vehicle		LDL level	6 ± 2.5 mg/dL
CCC(=O)N1CC=C(c2cc3c(Nc4cc5ncsc5cc4F)ncnc3s2)CC1		human liver microsomes	1 µM		intrinsic clearance	14 mL/min/g protein
COc1cc2ncnc(Oc3ccc4c(C(N)=O)c(C)oc4c3)c2cc1OC		human, moderate hepatic impairment, plasma	oral, dose not given, dose-normalized, metabolite	relative to: normal hepatic function	decrease in Cmax	17%
CC(C)CCCC(C)CCCC(C)CCOC1O[C@H](CO)[C@@H](O)[C@H](O)[C@H]1O (some centres unmarked)	drop shape tensiometry	water	room temperature		surface tension at CMC	27.1 mN/m
Cn1c(=O)oc2ccc(-c3ccc(CC(C#N)NC(=O)C4CNCCCO4)c(F)c3)cc21 (centres unmarked)		human	oral, 20 mg once daily, TEAE, multiple ascending dose		CPK increased incidence	0%
COc1ccc2cc(-c3ccc(-c4ccc(C)cn4)nc3)oc2c1	TCSPC	CHCl3			radiative decay rate constant	0.45 ns⁻¹
CC[C@@H](C)N([11CH3])C(=O)c1nc(-c2ccccc2)c2ccccc2n1	PET Logan analysis	male rhesus monkey, cerebellum	intravenous, dose not given, baseline		total volume of distribution	2.4 mL/cm³
Cc1ccc(NCC(=O)N2CCC(F)(F)CC2)cc1S(=O)(=O)N1CCOCC1		water			kinetic solubility	> 250 µM
CC(C)C[C@H](NC(=O)C[C@H](O)[C@H](CC(C)C)NC(=O)[C@H](Cc1c[nH]cn1)NC(=O)CNC(=O)[C@@H](NC(=O)[C@H](C)NC(=O)[C@H](Cc1c[nH]c2ccccc12)NC(=O)[C@H](CCC(N)=O)NC(=O)[C@@H](Cc1ccccc1)NC(=O)CCNC(=O)CCNC(=O)CN1CCN(CC(=O)O)CCN(CC(=O)O)CCN(CC(=O)O)CC1)C(C)C)C(N)=O [lutetium-177 labelled]	MIRD	mouse PC-3 xenograft, kidneys	intraperitoneal, 50 MBq, without PA		absorbed dose	7.3 Gy
